{"data": "Published values from different studies", "note": "Parts stem from different laboratories: compare values within a part only. Positions count from the first letter of the parent shown."}
{"data": "Set 1", "target": "PABPC1L2, full length, GST fusion (mouse, UniProt A0ABA7IW68)", "method": "RNAcompete", "form": "RNA", "medium": "in vitro", "concentration": "20 nM", "setting": "7-mer, probes averaged, single round", "reference": "mean of 7-mers", "reading": "higher = stronger binding", "Target sequence (chain)": "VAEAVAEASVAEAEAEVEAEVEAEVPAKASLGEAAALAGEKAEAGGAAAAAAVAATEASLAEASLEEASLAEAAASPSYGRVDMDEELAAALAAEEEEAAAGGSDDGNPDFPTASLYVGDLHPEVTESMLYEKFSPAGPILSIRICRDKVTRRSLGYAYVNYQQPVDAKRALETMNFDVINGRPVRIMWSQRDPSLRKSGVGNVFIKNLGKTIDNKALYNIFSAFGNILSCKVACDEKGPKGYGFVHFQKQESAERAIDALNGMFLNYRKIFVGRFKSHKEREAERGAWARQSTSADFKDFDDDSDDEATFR"}
{"Strand": "UGGACAA", "7-mer Z-score": 0.465}
{"Strand": "CUACCUA", "7-mer Z-score": -0.215}
{"Strand": "UCCCUGC", "7-mer Z-score": -0.405}
{"Strand": "CACGAGG", "7-mer Z-score": 0.119}
{"Strand": "UAGUCCA", "7-mer Z-score": -0.267}
{"Strand": "AGUUCCC", "7-mer Z-score": -0.264}
{"Strand": "UCCAUGG", "7-mer Z-score": -0.104}
{"Strand": "GAGGAAC", "7-mer Z-score": 0.16}
{"data": "Set 2", "target": "MAFK, bZIP domain (human)", "method": "DHFR protein complementation", "medium": "yeast", "setting": "single substitutions, most at no-binding floor", "reference": "wild-type JUN-FOS pair", "reading": "higher = stronger binding", "parent": "JUN, bZIP domain (human); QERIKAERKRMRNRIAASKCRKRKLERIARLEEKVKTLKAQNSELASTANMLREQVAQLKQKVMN; partner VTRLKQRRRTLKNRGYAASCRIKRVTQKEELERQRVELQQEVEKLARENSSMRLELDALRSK"}
{"Variant": "A29P", "binding fitness [natural log]": -1.49}
{"Variant": "K36V", "binding fitness [natural log]": -1.49}
{"Variant": "M51N", "binding fitness [natural log]": -1.42}
{"Variant": "S47F", "binding fitness [natural log]": -1.45}
{"Variant": "E44K", "binding fitness [natural log]": -1.49}
{"Variant": "L45N", "binding fitness [natural log]": -1.5}
{"Variant": "Q41H", "binding fitness [natural log]": -1.44}
{"Variant": "E32C", "binding fitness [natural log]": -1.51}
{"data": "Set 3", "target": "TAR DNA-binding protein 43, full length, His tag (TARDBP, Homo sapiens, UniProt Q13148, residues 1-414)", "method": "RNA Bind-n-Seq", "form": "RNA", "medium": "in vitro", "concentration": "20 nM", "setting": "6-mer, flanks averaged, single round", "together with": "150 mM LiCl", "reference": "input library", "reading": "higher = stronger binding"}
{"Strand": "CGCGCC", "6-mer enrichment (R)": 0.991}
{"Strand": "GACCAG", "6-mer enrichment (R)": 0.898}
{"Strand": "AUAUUU", "6-mer enrichment (R)": 1.13}
{"Strand": "AUAUCG", "6-mer enrichment (R)": 0.856}
{"Strand": "GGUACC", "6-mer enrichment (R)": 0.92}
{"Strand": "GCAUCU", "6-mer enrichment (R)": 0.842}
{"Strand": "AUACCA", "6-mer enrichment (R)": 0.854}
{"Strand": "UGAGUU", "6-mer enrichment (R)": 1.12}
{"data": "Further values, each from its own experiment", "parent": "viral docking peptide; PGASRRLFGSSAD"}
{"Variant": "PGASRRLFGSAAD [S11A]", "target": "CCND2, cyclin fold, Cln2 fusion (human)", "assay": "yeast growth competition, sequencing", "system": "yeast", "setting": "weak parent motif", "how to read": "reference: not given, higher = stronger binding", "measurement": "normalised enrichment score", "value": 0.418}
{"note": "Repeated from above (set 2):"}
{"Variant": "Q41H", "binding fitness [natural log]": -1.44}
{"Variant": "E32C", "binding fitness [natural log]": -1.51}
